{"data": "Results gathered from unrelated publications", "note": "Numbered parts are unrelated; each lists some results of a single study. Substitutions count along the parent as printed."}
{"data": "Series 1", "target": "CREB3L3, bZIP domain (human)", "method": "DHFR protein complementation", "matrix": "yeast", "notes": "single substitutions, most at no-binding floor", "baseline": "wild-type JUN-FOS pair", "direction": "higher = stronger binding", "parent": "JUN, bZIP domain (human); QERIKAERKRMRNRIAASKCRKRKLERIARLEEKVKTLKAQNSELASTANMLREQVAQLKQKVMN; partner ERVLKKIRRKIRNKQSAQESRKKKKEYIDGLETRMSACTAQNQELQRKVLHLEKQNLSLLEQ"}
{"Change": "I28G", "binding fitness [natural log]": -1.34}
{"Change": "L38A", "binding fitness [natural log]": -1.51}
{"Change": "N42R", "binding fitness [natural log]": -1.42}
{"Change": "S47L", "binding fitness [natural log]": -1.47}
{"Change": "L38P", "binding fitness [natural log]": -1.48}
{"Change": "K36L", "binding fitness [natural log]": -1.28}
{"Change": "L31C", "binding fitness [natural log]": -1.41}
{"Change": "Q55V", "binding fitness [natural log]": -1.52}
{"Change": "L38Q", "binding fitness [natural log]": -1.56}
{"Change": "K39Y", "binding fitness [natural log]": -1.48}
{"Change": "A49R", "binding fitness [natural log]": -1.38}
{"Change": "N42H", "binding fitness [natural log]": -1.43}
{"Change": "N42E", "binding fitness [natural log]": -1.43}
{"Change": "V35F", "binding fitness [natural log]": -1.37}
{"Change": "I28W", "binding fitness [natural log]": -1.49}
{"Change": "R53S", "binding fitness [natural log]": -1.27}
{"Change": "V56R", "binding fitness [natural log]": -1.45}
{"Change": "E54R", "binding fitness [natural log]": -1.49}
{"Change": "L59P", "binding fitness [natural log]": -1.44}
{"Change": "L45G", "binding fitness [natural log]": -1.52}
{"Change": "L45W", "binding fitness [natural log]": -1.45}
{"Change": "R30E", "binding fitness [natural log]": -1.39}
{"Change": "T37N", "binding fitness [natural log]": -1.32}
{"Change": "K39G", "binding fitness [natural log]": -1.43}
{"Change": "S47D", "binding fitness [natural log]": -1.54}
{"data": "Series 2", "target": "Histone acetyltransferase KAT6A, winged helix 1, GST fusion (KAT6A, Homo sapiens, UniProt Q92794, residues 1-85)", "method": "protein binding microarray", "molecule type": "double-stranded DNA, one strand shown", "matrix": "in vitro", "tested at": "not given", "notes": "8-mer, flanks averaged, mean of 2 arrays, mostly near background", "baseline": "not given", "direction": "higher = stronger binding", "Residues (chain)": "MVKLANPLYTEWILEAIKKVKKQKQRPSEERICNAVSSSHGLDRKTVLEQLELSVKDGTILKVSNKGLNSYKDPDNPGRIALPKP"}
{"Sequence": "AGCAAACG", "E-score": -0.12}
{"Sequence": "CACTAGAG", "E-score": -0.0236}
{"Sequence": "AGTCCGCG", "E-score": 0.325}
{"Sequence": "AAGTTTCA", "E-score": -0.0188}
{"Sequence": "AAACTAAG", "E-score": -0.168}
{"Sequence": "CTCTATCC", "E-score": 0.0066}
{"Sequence": "CGACTTTA", "E-score": -0.00993}
{"Sequence": "AGTCACCG", "E-score": 0.219}
{"Sequence": "GCGGTCGA", "E-score": 0.177}
{"Sequence": "CGGTTCAA", "E-score": 0.183}
{"Sequence": "CGAATGCG", "E-score": 0.306}
{"Sequence": "ACTTAGGC", "E-score": -0.158}
{"Sequence": "AATCACAA", "E-score": -0.145}
{"Sequence": "ATTTCGTA", "E-score": -0.155}
{"Sequence": "CGGGCGAA", "E-score": 0.269}
{"Sequence": "GATATGCC", "E-score": 0.0416}
{"Sequence": "GTAACCAC", "E-score": 0.0724}
{"Sequence": "CGACAAAC", "E-score": 0.101}
{"Sequence": "CACGGCGC", "E-score": 0.429}
{"Sequence": "AAGCACCT", "E-score": -0.24}
{"Sequence": "GCTTTTAA", "E-score": 0.0445}
{"Sequence": "ACTACGCA", "E-score": 0.0407}
{"Sequence": "CAGCAATA", "E-score": -0.0779}
{"Sequence": "AGTTTTAT", "E-score": -0.235}
{"data": "Series 3", "target": "Sal-like protein 4, full length isoform A (SALL4, Homo sapiens, UniProt Q9UJQ4, residues 1-1053)", "method": "universal PBM", "molecule type": "double-stranded DNA, one strand shown", "matrix": "in vitro", "tested at": "600 nM", "notes": "8-mer, flanks averaged, mean of replicates", "direction": "higher = stronger binding", "chain of UniProt Q9UJQ4 (whole entry, looked up)": "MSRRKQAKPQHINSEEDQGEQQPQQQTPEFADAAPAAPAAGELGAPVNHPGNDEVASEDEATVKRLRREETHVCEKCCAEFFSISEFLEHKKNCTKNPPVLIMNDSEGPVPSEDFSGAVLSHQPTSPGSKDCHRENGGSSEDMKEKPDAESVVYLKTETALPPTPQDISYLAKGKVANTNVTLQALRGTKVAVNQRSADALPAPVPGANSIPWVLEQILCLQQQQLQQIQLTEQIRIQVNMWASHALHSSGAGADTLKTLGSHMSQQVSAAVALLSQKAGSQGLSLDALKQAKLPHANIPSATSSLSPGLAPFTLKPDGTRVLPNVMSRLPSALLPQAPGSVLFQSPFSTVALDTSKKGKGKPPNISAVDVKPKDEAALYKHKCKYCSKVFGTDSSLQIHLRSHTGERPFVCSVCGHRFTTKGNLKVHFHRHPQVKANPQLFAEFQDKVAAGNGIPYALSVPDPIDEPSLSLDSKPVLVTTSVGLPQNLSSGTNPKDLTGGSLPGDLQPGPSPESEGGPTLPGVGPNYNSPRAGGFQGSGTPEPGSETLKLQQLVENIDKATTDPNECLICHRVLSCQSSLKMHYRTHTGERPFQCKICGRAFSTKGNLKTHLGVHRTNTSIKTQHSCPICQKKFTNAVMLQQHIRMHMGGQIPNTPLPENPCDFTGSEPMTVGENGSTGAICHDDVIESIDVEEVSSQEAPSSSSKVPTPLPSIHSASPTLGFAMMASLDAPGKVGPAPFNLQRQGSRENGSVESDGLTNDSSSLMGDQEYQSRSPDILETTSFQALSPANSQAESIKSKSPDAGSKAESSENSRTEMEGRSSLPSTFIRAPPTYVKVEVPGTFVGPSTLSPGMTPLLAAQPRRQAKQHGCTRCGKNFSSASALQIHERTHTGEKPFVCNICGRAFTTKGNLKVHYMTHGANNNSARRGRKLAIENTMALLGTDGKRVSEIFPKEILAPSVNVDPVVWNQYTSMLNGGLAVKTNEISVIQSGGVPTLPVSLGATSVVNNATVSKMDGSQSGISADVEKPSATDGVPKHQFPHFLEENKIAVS"}
{"Sequence": "CGGAACCA", "E-score": -0.281}
{"Sequence": "AGTGACAG", "E-score": -0.0205}
{"Sequence": "AAATGACT", "E-score": 0.265}
{"Sequence": "AGCATGTA", "E-score": 0.149}
{"Sequence": "AAGTTACG", "E-score": 0.133}
{"Sequence": "AGGTTCGA", "E-score": 0.0354}
{"Sequence": "ACCGATAG", "E-score": -0.00719}
{"Sequence": "GTATTGTA", "E-score": 0.266}
{"Sequence": "TTGGCCAA", "E-score": -0.141}
{"Sequence": "CATCGCTC", "E-score": -0.257}
{"Sequence": "CATGGCCG", "E-score": -0.271}
{"Sequence": "CAGAACAC", "E-score": -0.0947}
{"Sequence": "GCACGGAC", "E-score": -0.273}
{"Sequence": "CCCCGGAG", "E-score": -0.403}
{"Sequence": "GCACTTCA", "E-score": 0.0993}
{"Sequence": "GGTCATGA", "E-score": 0.0539}
{"Sequence": "CGGGCAAC", "E-score": -0.362}
{"Sequence": "AGCCTCTA", "E-score": -0.232}
{"Sequence": "GGAGTCAC", "E-score": -0.264}
{"Sequence": "CTGCAAAA", "E-score": 0.223}
{"Sequence": "GCCGGGAA", "E-score": -0.38}
{"Sequence": "AAGCCCTT", "E-score": -0.121}
{"Sequence": "ACAGTTCC", "E-score": -0.0389}
{"Sequence": "CGATAAAC", "E-score": -0.0106}
{"Sequence": "AGTACGCG", "E-score": -0.0206}
{"data": "Series 4", "target": "RNA binding protein fox-1 homolog 2, RRM domain, GST-SBP tag (RBFOX2, Homo sapiens, UniProt O43251-10, residues 100-194)", "method": "RNA Bind-n-Seq", "molecule type": "RNA", "matrix": "in vitro", "tested at": "365 nM", "notes": "natural RNA segment, single round, ends assumed", "baseline": "no-protein control", "direction": "higher = stronger binding", "Residues (chain)": "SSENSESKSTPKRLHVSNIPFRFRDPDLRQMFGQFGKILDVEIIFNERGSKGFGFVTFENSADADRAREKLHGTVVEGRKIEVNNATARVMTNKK"}
{"Sequence": "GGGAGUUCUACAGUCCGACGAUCUGUUGAGCCCAUUCAGUAGCCGAGUCUUGUCACUCUGUGCCAGCCUCAGUCCUGUGUCCCUUUUUCUCUUGGGUUGAGCCUGUGGCUCAUCCCCUUUGUCCUUUUGGGAAUGGAAUUCUCGGGUGCCAA", "RBNS enrichment (R)": 0.198}
{"Sequence": "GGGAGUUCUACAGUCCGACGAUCUUUUGUAUCUAGGAGUCCAUUUGAGUUCUUUCCAAUAUUUCCAUAUCGUUCAUAAAUGUGUCUGGGGGCUUCCUUGUUUGGAAAAUAUGGAUAUCGCUUUGUUUUCCUUUUGGAAUUCUCGGGUGCCAA", "RBNS enrichment (R)": 0.921}
{"Sequence": "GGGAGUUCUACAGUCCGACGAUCCGUUUUCUCCCCGUGUGCUUUCCUGCAGAAUCCUUGCCUUUCCGUUGUUAGGUUGGGUUUUCUAUAUGAAUUAUCAUCUGGAAUUCUGUAGCACACCUCAUAGGUAUGGAUGGAAUUCUCGGGUGCCAA", "RBNS enrichment (R)": 0.214}
{"Sequence": "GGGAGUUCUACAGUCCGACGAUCCGGGUGUUCUGGGGUGUCUGCCCUCUGUCGGCCCUGCUUCCUGCCAGGACGUGGCCUCUUCCGAUCCUUUUCUCUCAGACACUGGAGGUCUCUUCUGCCAUUGUGCUGGUUGGAAUUCUCGGGUGCCAA", "RBNS enrichment (R)": 0.334}
{"Sequence": "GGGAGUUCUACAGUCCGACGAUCUUUAUUUUAAAGAGAAAGUGAUUCAGUGGGGAAAUUUAUAAAGCUAUAAAUAUUAUAUAUUUUAUUUUUCAUACAUGUUUGAAUUGCGGAUCCAUGGAUGUUCCAUCUGUUGGAAUUCUCGGGUGCCAA", "RBNS enrichment (R)": 0.896}
{"Sequence": "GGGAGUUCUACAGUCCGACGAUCCAUUGUGAUGACUUUUUUGAUAUUCAUUAGAAACAAUACAUCCUUUCUGAGAUAUUUACAGUAUUAUUAAAAAAUGAAAAAGGUUGUACUGUUUUGCAUAAUGAACAUUUUGGAAUUCUCGGGUGCCAA", "RBNS enrichment (R)": 0.734}
{"Sequence": "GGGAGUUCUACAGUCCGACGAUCGAUCCUUCCUCUCCGAGGAUCCUCAUUAUAUACCUAGUAGGAAGGACUCUGAACUCAGAGCAGUCACACUUCCUUGGUUUUUUUAGGUUAGACAUUAACAAACAGCAGGAUGGAAUUCUCGGGUGCCAA", "RBNS enrichment (R)": 0.499}
{"Sequence": "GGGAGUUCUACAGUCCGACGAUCGUGCAAUCAGCUUUCAUUUCCUUUUUCUUGAAAACAUACGACUAUAUAGAAAGAAAGACAAUAAGAACACGAGAAACGCCCCCCCCCACCCCCCGGCAUCCUGGAGAGCAUGGAAUUCUCGGGUGCCAA", "RBNS enrichment (R)": 8.35}
{"Sequence": "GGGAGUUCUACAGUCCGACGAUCACCCAGUAGAGCUUGAAGCUGACCUUUCUGAGAAGUUGGUAUGGUGUAACACUAAAGUAGGUGGUUCGUGUGUGUUCUCAUUACCUGGUUAUGAUAGAUAUGCACAUCAAUGGAAUUCUCGGGUGCCAA", "RBNS enrichment (R)": 0.495}
{"Sequence": "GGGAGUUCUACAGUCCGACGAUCUCUCUCUCUGUUGAGUAACCUCUCAAGGACCAGAGUGGAGUCCAGAUUGUUAGGCUCAGAUCAAGGGUGGGGAAAUACUGCCCUCUCGUGGUGGCUUUUCAUCCAGGCCUUGGAAUUCUCGGGUGCCAA", "RBNS enrichment (R)": 0.165}
{"Sequence": "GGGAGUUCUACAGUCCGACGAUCAUUUAUGUUUCUUUGGAUCCUCAUUGCCUCAAAGCAGCAUACUUAAUUUUUGUUUAUUUAUUGUGAGCUUUUUACUUUAAGAUUUUACAUGAGUAAUCAAAAUUAAAUUAUGGAAUUCUCGGGUGCCAA", "RBNS enrichment (R)": 0.479}
{"Sequence": "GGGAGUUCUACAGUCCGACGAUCAGGUCAUAUUUUAACUCUUUAUAGGAAAUGCCUUUAACACAAGUGACUGUAGGUGACUUUCUUGUGCAGUAUUGUGACUCCCAAGAGUGACUGUAGGAUGGUUUGAACGAUGGAAUUCUCGGGUGCCAA", "RBNS enrichment (R)": 1.98}
{"note": "For quick reference, copied from above (series 2):"}
{"Sequence": "CACTAGAG", "E-score": -0.0236}
{"Sequence": "AGTCCGCG", "E-score": 0.325}
{"Sequence": "AAGTTTCA", "E-score": -0.0188}
{"Sequence": "AAACTAAG", "E-score": -0.168}
{"Sequence": "CTCTATCC", "E-score": 0.0066}
{"Sequence": "CGACTTTA", "E-score": -0.00993}
{"Sequence": "AGTCACCG", "E-score": 0.219}
{"Sequence": "GCGGTCGA", "E-score": 0.177}
{"Sequence": "CGGTTCAA", "E-score": 0.183}
